Published values of several laboratories.
A part holds a random share of what one study measured.

Set 1
Organism: SARS-CoV-2
Observed: cytopathic effect
Cells: Vero E6
Concentration: 10 µM
Compound | inhibition [%]
CCC(=O)OCN1C(=O)C=CC1=O | -3.6
CC(C)(C)NC(=O)N[C@H](C(=O)N1C[C@H]2[C@@H]([C@H]1C(=O)NC(CC1CCC1)C(=O)C(N)=O)C2(C)C)C(C)(C)C (stereo partly drawn) | 0.9
Oc1cc2c(cc1C(c1ccc(C(F)(F)F)cc1)N1CCOCC1)OCO2 (stereo not drawn) | 6
c1ccc2sc(SNC3CCCCC3)nc2c1 | -5.8

Set 2
Cell line: HEK-293T
Observed: pseudovirus infection
Method: FDA-approved drug library screen
Organism: VSV pseudotyped with SARS-CoV-2 spike
Concentration: 10 µM
Time: 16 h
Baseline: vehicle-treated
SMILES | GFP-positive cells
CN(C)CCC(c1ccc(Cl)cc1)c1ccccn1 (stereo not drawn) | 74.8%
O=C(c1ccc(OCCN2CCCCC2)cc1)c1c(-c2ccc(O)cc2)sc2cc(O)ccc12 | 9.66%
CC(=O)Oc1ccccc1C(=O)O | 87.2%
C=CC1=C(C(=O)O)N2C(=O)[C@@H](NC(=O)/C(=N\OCC(=O)O)c3csc(N)n3)[C@H]2SC1 | 81.6%
CCN(CC)C(=S)SSC(=S)N(CC)CC | 85%
O=c1[nH]c(=O)n([C@H]2C[C@H](O)[C@@H](CO)O2)cc1I | 70.3%

Set 3
Target: Interferon regulatory factor 5, full length, phosphomimetic (IRF5, Homo sapiens, UniProt Q13568-2, residues 1-514, K96S/S451D/S453D/S456D/S462D)
Method: protein-binding microarray
Molecule type: double-stranded DNA, one strand shown
Sample: in vitro
Concentration: 250 nM
Setting: 60-bp whole probe
Together with: salmon DNA 0.4 mg/ml
Baseline: random background probes
Reading: higher = stronger binding
All sequences stand within: GCCTAGCAC … GTCTTGATTCGCTTGACGCTGCTG
Sequence | log fluorescence [z-score]
TCATCTCTCTTAAATAGGACTGTGCTA | 0.613
TCTAATCTCACTCTGTCCCTGTGCTAG | 0.608
TTAGATATCGGTTATCGATTAGTGCTA | 7.97
GTTTCATTCCTGATCTCTGGGTGCTAG | 3.02
GCTATTTTTAGGATGGGCTAGTGCTAG | 0.184
TGTCTTCCCCATCTTGTTCCGTGCTAG | 0.331
TCATCTTTCCACTTTCTACTGTGCTAG | 2.71
GACGATTTCGGGAGTGGAGACGTGCTA | 1.77

Set 4
Target: RNA binding protein fox-1 homolog 2, RRM domain, GST-SBP tag (RBFOX2, Homo sapiens, UniProt O43251-10, residues 100-194)
Method: RNA Bind-n-Seq
Molecule type: RNA
Sample: in vitro
Concentration: 365 nM
Setting: natural RNA segment, single round, ends assumed
Baseline: no-protein control
Reading: higher = stronger binding
All sequences stand within: GGGAGUUCUACAGUCCGACGAUC … UGGAAUUCUCGGGUGCCAA
Residues (chain): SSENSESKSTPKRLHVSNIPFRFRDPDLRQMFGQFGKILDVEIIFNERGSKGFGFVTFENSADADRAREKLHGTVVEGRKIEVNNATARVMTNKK
Sequence | RBNS enrichment (R)
CACUCAGCCCACAUACGGCAUUCUUCCCAUCCCACAGUCUUAGAGCCAGAUGAGGCUAACAAGACCACAGUAGCCCCCUUCCCAGGUACCACACUGUCCCUGGAGAUCCC | 0.808
AGUACUGUGCUAUAUGUAGCCGCCUUUACAGAUGUUAUUAACCUAUAGUAGUUUACUAUUAACUAGGAAGACUGGUGUAUGAGGAGGGAGACAUUCUGUAAUAAGAUUAA | 0.386
GGAAAAGGAGCAGAGAGCUGUCCAUCUGGAUUGAUGGAAGAAAAGAGAACCUCAUCCAUGCCUGGAGAACAUCUAGAAAACCUUCAGCCAGCCUCCAGUGCUGUCGAGAG | 0.462
CGUUUGGCGCUGUUGUAUGGUGUGAUUGUCAGUGUAUGGUGUCACUUCCUAUAGCCAGCAGCAGACUUUGCCUUCCCUAUAGCACUUAGCUGAGCAUUACUUUAUGAUGA | 0.617
UGGGUGCUGUACCUGUUCCAGAAGCGAGGACCCAGGUGACAGCCUCACCUUUGCAAAGUUAUAGAGGAACCUGCCCUGGUACAUCUUUAAUAUUAGGAUUCUGUUUUCUA | 0.308
UCUUUUGAGGUAAGCUCUGAUUUAGCAUUUAUUCUGAUAAAAUCUAAUACAUCAUGGGAUAUAUAUAAAGCAACUUAAUUCUUGUGGUGUAGUCUUAAUAGUUUUGAAUG | 0.517
CACCGCAGAGCCGAGGCGGUGUUGUCAGGGCUAAUGUGAAAUCUCUUCCCGUGGCGCCGAUCCUCUGACUCUAUAGCGCCAGCUUGGACAGAUUGAGGUCUCUGUGGCUU | 0.712
AUGCACCUGCAAGAAUUGGGAAGAAAGAGCAUUUAUUAGGCACUGUAGCAAUUUGCAUUUUAAAAUGCCUGAGCAUUUAUUAAGCUUCUUGGUAUUCACUUGGGUUUGAU | 2.3

Set 5
Target: Replicase polyprotein 1ab, polymerase (rep, Severe acute respiratory syndrome coronavirus 2, UniProt P0DTD1)
Observed: enzyme activity
Mode: inhibitor
Concentration: 20 µM
Compound | inhibition
CC#CC(=O)N1CC[C@@H](n2c(=O)n(-c3ccc(Oc4ccccc4)cc3)c3c(N)ncnc32)C1 | -1.24%
N=C(N)NCc1cccc(I)c1 | 3.76%
CC(C)[C@H](C(=O)Nc1ccc(C(=O)NO)cc1)c1ccccc1 | -2.55%
COC(=O)CCSCc1ccc(-c2onc(C)c2NC(=O)OC(C)c2ccccc2Cl)cc1 (stereo not drawn) | 0.23%
CNC(=O)c1ccccc1Nc1nc(Nc2ccc(N3CCOCC3)cc2OC)ncc1Cl | -17.5%
C[C@@H](O)[C@H]1C(=O)N2C(C(=O)O)=C(S[C@@H]3CN[C@H](C(=O)Nc4cccc(C(=O)O)c4)C3)[C@H](C)[C@H]12 | 5.85%
Cn1c(=O)[nH]c2ncn(C)c2c1=O | 0.02%
CN(C)CC/C=C1/c2ccccc2Sc2ccc(Cl)cc21 | -3.38%
COc1cc(-n2c(=S)[nH]c3ccccc3c2=O)c(Cl)cc1Cl | 0.72%
c1ccc(CNc2ncnc3[nH]cnc23)cc1 | 0.77%
C=CCN1C[C@H](C)N([C@H](c2ccc(C(=O)N(CC)CC)cc2)c2cccc(O)c2)C[C@H]1C | -1.62%
O=c1oc2cc(O)ccc2s1 | 5.12%
CC(CNC(=O)c1cccnc1)NC(=O)c1cccnc1 (stereo not drawn) | -5.4%
O=C(Nc1ccc([N+](=O)[O-])cc1O)Nc1ccccc1Br | -10.7%
O=C(CCCN1CC=C(n2c(=O)[nH]c3ccccc32)CC1)c1ccc(F)cc1 | 28.8%
Cc1cc(-c2ccc(CC(=O)Nc3ccc(-c4cccnc4)cc3)cc2)ccn1 | -0.72%
CCCC[C@]1(CC)CS(=O)(=O)c2cc(CNC(CC(=O)O)CC(=O)O)c(OC)cc2[C@@H](c2ccccc2)N1 | 2.14%
O=C(/C=C/N1C[C@H]2C[C@@H]1CN2c1ccccn1)c1ccccc1O | 0.75%
Cn1cccc1/C=C1\C(=O)NC(=O)c2ccccc21 | -2.06%
O=C(CC(c1ccccc1)c1ccccc1)N1CCN(C(c2ccccc2)c2ccccc2)CC1 | -15.2%
O=C(CCCCCN1C(=O)c2cccc3cccc(c23)C1=O)NO | 8.43%
CC[C@H](C)[C@H](N)C1=N[C@H](C(=O)N[C@@H](CC(C)C)C(=O)N[C@H](CCC(=O)O)C(=O)N[C@H](C(=O)N[C@H]2CCCCNC(=O)[C@H](CC(N)=O)NC(=O)[C@@H](CC(=O)O)NC(=O)[C@H](Cc3cnc[nH]3)NC(=O)[C@@H](Cc3ccccc3)NC(=O)[C@H]([C@@H](C)CC)NC(=O)[C@@H](CCCN)NC2=O)[C@@H](C)CC)CS1 | 5.04%
O=C(N[C@H]1CN2CCC1CC2)c1ccc(Cl)cc1 | -2.16%
CN1CC[C@@H]2CN3CCc4cccc(c43)[C@@H]2C1 | 1.8%
CCC(=O)NS(=O)(=O)c1ccc(-c2c(-c3ccccc3)noc2C)cc1 | 3.7%

For quick reference, copied from above (set 5):
Compound | inhibition
c1ccc(CNc2ncnc3[nH]cnc23)cc1 | 0.77%
C=CCN1C[C@H](C)N([C@H](c2ccc(C(=O)N(CC)CC)cc2)c2cccc(O)c2)C[C@H]1C | -1.62%
O=c1oc2cc(O)ccc2s1 | 5.12%
CC(CNC(=O)c1cccnc1)NC(=O)c1cccnc1 (stereo not drawn) | -5.4%
O=C(Nc1ccc([N+](=O)[O-])cc1O)Nc1ccccc1Br | -10.7%
O=C(CCCN1CC=C(n2c(=O)[nH]c3ccccc32)CC1)c1ccc(F)cc1 | 28.8%
Cc1cc(-c2ccc(CC(=O)Nc3ccc(-c4cccnc4)cc3)cc2)ccn1 | -0.72%
CCCC[C@]1(CC)CS(=O)(=O)c2cc(CNC(CC(=O)O)CC(=O)O)c(OC)cc2[C@@H](c2ccccc2)N1 | 2.14%
O=C(/C=C/N1C[C@H]2C[C@@H]1CN2c1ccccn1)c1ccccc1O | 0.75%
